Measured values pooled from the literature.
Protocols differ between the studies behind these lines. Numbers after ± are the reported error.
CYP2B6: Cytochrome P450 2B6 (CYP2B6, Homo sapiens, UniProt P20813)
UniProt P20813, sequence (whole entry, looked up): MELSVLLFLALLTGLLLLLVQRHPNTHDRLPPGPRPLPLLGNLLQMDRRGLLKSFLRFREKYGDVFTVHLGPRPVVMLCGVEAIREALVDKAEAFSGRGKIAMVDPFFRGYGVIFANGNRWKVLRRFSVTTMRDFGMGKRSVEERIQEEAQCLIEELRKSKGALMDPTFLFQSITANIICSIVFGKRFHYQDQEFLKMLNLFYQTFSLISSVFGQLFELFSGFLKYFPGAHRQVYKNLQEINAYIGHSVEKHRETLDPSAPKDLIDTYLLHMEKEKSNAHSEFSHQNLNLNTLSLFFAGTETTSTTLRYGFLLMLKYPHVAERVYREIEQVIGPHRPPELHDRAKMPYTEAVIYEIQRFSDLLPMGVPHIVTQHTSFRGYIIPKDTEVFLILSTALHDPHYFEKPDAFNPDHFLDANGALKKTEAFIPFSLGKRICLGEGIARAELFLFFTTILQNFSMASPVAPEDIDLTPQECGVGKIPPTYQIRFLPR
CYP2E1: Cytochrome P450 2E1 (CYP2E1, Homo sapiens, UniProt P05181)
UniProt P05181, sequence (whole entry, looked up): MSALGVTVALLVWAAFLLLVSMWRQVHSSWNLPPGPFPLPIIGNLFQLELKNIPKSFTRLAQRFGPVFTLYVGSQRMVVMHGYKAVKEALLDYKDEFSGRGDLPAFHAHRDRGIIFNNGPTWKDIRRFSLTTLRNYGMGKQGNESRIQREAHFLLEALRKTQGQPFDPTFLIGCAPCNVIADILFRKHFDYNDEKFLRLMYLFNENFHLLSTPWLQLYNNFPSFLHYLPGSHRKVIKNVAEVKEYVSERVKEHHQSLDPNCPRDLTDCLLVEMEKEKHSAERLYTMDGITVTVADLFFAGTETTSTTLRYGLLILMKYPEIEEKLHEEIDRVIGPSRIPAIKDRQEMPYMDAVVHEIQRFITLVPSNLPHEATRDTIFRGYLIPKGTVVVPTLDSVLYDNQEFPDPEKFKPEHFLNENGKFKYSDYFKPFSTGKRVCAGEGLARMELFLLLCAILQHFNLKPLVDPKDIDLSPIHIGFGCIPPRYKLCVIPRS
SLC22A1: Solute carrier family 22 member 1 (SLC22A1, Homo sapiens, UniProt O15245)
UniProt O15245, sequence (whole entry, looked up): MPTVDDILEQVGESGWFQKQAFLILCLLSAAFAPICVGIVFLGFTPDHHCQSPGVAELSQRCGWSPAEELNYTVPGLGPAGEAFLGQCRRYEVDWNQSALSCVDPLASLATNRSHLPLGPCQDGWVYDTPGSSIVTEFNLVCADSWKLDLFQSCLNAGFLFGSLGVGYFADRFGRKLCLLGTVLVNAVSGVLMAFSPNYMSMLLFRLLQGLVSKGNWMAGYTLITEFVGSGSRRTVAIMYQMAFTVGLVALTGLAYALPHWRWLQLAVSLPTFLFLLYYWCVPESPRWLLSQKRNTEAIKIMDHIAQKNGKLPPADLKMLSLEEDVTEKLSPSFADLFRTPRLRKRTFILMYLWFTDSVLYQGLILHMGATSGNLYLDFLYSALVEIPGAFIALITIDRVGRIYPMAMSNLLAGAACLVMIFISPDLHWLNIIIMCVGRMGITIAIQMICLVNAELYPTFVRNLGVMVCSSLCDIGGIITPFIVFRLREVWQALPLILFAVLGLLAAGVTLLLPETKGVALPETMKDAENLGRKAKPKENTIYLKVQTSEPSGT
AHR: Aryl hydrocarbon receptor (AHR, Homo sapiens, UniProt P35869)
UniProt P35869, sequence (whole entry, looked up): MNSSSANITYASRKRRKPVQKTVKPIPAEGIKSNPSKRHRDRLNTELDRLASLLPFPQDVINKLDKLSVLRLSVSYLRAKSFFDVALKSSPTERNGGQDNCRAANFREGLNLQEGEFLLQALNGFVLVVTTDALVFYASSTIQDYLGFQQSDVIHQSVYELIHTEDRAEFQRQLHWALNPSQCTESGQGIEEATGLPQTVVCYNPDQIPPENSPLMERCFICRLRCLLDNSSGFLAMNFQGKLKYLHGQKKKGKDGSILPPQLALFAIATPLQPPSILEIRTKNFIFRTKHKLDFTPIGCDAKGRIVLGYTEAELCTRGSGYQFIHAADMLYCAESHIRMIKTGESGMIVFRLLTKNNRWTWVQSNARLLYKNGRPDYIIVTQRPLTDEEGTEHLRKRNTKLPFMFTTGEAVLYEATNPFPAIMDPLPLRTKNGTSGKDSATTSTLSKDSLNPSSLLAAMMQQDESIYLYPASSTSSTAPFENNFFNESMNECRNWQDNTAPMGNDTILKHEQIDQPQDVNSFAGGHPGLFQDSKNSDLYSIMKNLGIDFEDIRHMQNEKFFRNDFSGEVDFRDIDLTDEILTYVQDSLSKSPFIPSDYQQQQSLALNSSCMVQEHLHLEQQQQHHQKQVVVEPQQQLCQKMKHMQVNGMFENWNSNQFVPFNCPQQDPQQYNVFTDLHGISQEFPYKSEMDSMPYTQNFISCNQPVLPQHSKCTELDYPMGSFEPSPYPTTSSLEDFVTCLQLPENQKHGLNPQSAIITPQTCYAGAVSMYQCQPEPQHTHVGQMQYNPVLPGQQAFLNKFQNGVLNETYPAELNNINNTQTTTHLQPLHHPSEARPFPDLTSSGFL
UniProt P04798, sequence (whole entry, looked up): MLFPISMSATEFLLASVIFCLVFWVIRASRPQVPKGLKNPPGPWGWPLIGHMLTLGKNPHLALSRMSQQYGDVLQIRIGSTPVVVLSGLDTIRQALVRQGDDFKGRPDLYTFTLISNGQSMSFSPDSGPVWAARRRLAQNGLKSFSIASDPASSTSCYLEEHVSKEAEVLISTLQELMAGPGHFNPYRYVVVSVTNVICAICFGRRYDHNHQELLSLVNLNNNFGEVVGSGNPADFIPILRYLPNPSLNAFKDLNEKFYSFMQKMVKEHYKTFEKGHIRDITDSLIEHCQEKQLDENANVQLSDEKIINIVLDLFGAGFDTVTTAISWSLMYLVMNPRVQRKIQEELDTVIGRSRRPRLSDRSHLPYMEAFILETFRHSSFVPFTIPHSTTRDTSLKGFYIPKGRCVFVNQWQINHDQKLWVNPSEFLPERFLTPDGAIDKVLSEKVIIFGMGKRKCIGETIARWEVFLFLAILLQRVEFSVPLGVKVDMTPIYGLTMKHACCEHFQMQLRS
UniProt P02769, sequence (whole entry, looked up): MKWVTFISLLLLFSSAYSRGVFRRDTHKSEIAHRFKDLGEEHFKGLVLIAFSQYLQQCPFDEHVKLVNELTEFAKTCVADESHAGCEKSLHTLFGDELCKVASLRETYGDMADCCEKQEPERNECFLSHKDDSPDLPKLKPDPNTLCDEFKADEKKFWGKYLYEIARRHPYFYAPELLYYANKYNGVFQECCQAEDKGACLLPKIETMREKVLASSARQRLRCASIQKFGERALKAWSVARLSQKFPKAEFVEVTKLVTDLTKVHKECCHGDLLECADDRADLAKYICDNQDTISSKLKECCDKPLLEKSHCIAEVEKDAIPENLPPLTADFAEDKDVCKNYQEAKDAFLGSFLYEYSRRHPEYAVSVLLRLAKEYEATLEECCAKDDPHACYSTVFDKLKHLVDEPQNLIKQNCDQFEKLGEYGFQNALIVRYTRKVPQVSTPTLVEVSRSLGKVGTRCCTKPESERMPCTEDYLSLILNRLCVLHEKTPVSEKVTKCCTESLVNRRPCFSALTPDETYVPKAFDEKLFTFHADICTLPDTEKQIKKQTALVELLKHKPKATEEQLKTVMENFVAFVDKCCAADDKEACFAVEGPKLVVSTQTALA
UniProt P00784, sequence (whole entry, looked up): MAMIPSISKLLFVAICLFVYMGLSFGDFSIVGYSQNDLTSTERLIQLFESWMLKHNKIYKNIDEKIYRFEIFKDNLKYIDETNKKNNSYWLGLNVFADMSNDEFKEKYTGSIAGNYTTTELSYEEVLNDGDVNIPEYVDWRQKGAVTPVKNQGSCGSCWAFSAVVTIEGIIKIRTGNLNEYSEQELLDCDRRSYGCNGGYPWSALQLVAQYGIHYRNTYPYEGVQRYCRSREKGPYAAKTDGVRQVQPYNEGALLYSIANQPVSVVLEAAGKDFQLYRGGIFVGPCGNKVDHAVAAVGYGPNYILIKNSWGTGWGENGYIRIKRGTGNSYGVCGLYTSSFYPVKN
UniProt P22309, sequence (whole entry, looked up): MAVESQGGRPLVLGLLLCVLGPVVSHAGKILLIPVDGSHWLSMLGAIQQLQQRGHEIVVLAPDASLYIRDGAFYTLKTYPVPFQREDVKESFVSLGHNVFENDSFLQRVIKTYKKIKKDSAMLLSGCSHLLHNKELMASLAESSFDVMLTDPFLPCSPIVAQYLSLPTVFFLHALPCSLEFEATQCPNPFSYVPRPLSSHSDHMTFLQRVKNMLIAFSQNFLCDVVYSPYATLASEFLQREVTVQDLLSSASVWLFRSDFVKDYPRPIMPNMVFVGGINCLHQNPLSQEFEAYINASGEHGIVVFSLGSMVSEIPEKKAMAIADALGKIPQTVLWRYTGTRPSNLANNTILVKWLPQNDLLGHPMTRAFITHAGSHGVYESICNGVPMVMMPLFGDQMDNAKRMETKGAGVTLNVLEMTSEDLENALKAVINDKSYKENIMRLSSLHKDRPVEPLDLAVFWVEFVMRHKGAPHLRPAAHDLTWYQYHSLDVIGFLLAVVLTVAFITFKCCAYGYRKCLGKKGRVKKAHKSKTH

The IC50 of `COc1cc(N2CC[C@@]3(O)C(=O)c4cc(C)c(C)cc4N=C23)ccn1` is reported as < 50 µM (CYP2B6; inhibitor).
With `CC1CO1` (stereo not drawn) the IC50 was 14000 µM (CYP2E1; enzyme activity, inhibitor; pH 7.4, 37 °C, added: 4-nitrophenol 50 µM).
`O=C1CCC(N2C(=O)c3ccccc3C2=O)C(=O)N1` (stereo not drawn) has an inhibition of 6.9% (SLC22A1; transport, inhibitor; transiently transfected cells; 100 µM, 10 (unit not given), added: metformin).
`COc1cc(-c2[o+]c3cc(O)cc(O)c3cc2O[C@@H]2O[C@H](CO)[C@@H](O)[C@H](O)[C@H]2O)cc(OC)c1O` gave a Kd of 77.7 ± 5.73 µM (Albumin (ALB, Bos taurus, UniProt P02769); fluorescence quenching; pH 7, 40 °C, added: 1 µM BSA).
With `C=CC1CO1` (stereo not drawn) the IC50 was 110 µM (CYP2E1; enzyme activity, inhibitor; pH 7.4, 37 °C, added: 4-nitrophenol 50 µM).
Under “relative enzyme contribution”, `CC(C)[C@H](C(=O)O[C@H](C#N)c1cccc(Oc2ccccc2)c1)c1ccc(Cl)cc1` is recorded as 47.8% (human microsomal CES1; IVIVE from expressed enzymes; human, 6 months old; relative to: total hepatic CLint in vivo).
The Emax of `COc1cccc(C(=O)c2c[nH]c3ccccc23)c1` is reported as 46% (AHR; reporter gene, agonist; HepG2; XRE-driven luciferase; relative to: ITE 10 µM).
`CC1(C)[C@H](C(=O)OCc2cccc(Oc3ccccc3)c2)[C@@H]1C=C(Cl)Cl` — result for “enzyme contribution to CLint”: 0.13% (human CYP3A5; IVIVE from expressed enzymes; human, liver, in vivo scaled; 0.1 µM, age-specific).
`CCN(CCO)CCCC(C)Nc1ccnc2cc(Cl)ccc12` (stereo not drawn) has an inhibition of 80.2% (SLC22A1; transport, inhibitor; transiently transfected cells; 100 µM, 10 (unit not given), added: metformin).
The maximum activity of `Oc1ccc(-c2ccc(Cl)cc2)c(Cl)c1` is reported as 63% (AHR; reporter gene, antagonist; AZ-AHR cells; 25 µM, added: TCDD 4.5 nM; relative to: TCDD 4.5 nM).
For `COc1ccc2cc1Oc1ccc(cc1)C[C@H]1c3cc(c(OC)cc3CCN1C)Oc1c(OC)c(OC)cc3c1[C@H](C2)N(C)CC3`, the inhibition was 69.4% (SLC22A1; transport, inhibitor; 10 µM, added: Metformin).
`Oc1ccc(-c2cc(Cl)ccc2Cl)c(Cl)c1` has a maximum activity of 134% (AHR; reporter gene, antagonist; AZ-AHR cells; 25 µM, added: TCDD 4.5 nM; relative to: TCDD 4.5 nM).
`CC1(C)[C@H](C(=O)O[C@H](C#N)c2cccc(Oc3ccccc3)c2)[C@@H]1C=C(Br)Br`: “enzyme contribution to CLint” 0.36% (human cytosolic CES2; IVIVE from expressed enzymes; human, liver, in vivo scaled; 0.1 µM, age-specific).
For `CCOC(=O)C1=C[C@@H](OC(CC)CC)[C@H](NC(C)=O)[C@@H](N)C1`, the inhibition was 26.3% (SLC22A1; transport, inhibitor; transiently transfected cells; 100 µM, 10 (unit not given), added: metformin).
`CC(C)Cn1cnc2c(N)nc3ccccc3c21` gave an inhibition of ~35% (Cytochrome P450 1A1 (CYP1A1, Homo sapiens, UniProt P04798); granisetron 7-hydroxylation, inhibitor, LC-MS; HaCaT keratinocytes, benzo[a]pyrene-pretreated; 0.5 µM, 6 h, added: granisetron 1 µM).
`O=C(O)C(F)(F)C(F)(F)C(F)(F)C(F)(F)C(F)(F)C(F)(F)C(F)(F)F` gave a CLint of 43.8 ± 15.3 µL/min/mg (Solute carrier organic anion transporter family member 1B1 (SLCO1B1, Homo sapiens, UniProt Q9Y6L6); uptake, substrate; CHO cells stably expressing SLCO1B1, HBSS with HEPES; pH 7.4).
`CC1(C)C(/C=C(\Cl)C(F)(F)F)C1C(=O)OC(C#N)c1cccc(Oc2ccccc2)c1` (stereo not drawn) — result for “relative enzyme contribution”: 62.6% (human microsomal CES1; IVIVE from expressed enzymes; human, 6 months old; relative to: total hepatic CLint in vivo).
The remaining activity of `Cc1ccccc1` is reported as 14% (CYP2E1; enzyme activity, inhibitor; concentration not given, 30 min, pH 7.4).
`C[C@@H](O)[C@H](N)C(=O)N1CCC[C@H]1C(=O)N1CCC[C@H]1C(=O)N[C@H](C(N)=O)[C@@H](C)O` gave an inhibition of -5% (UDP-glucuronosyltransferase 1A1 (UGT1A1, Homo sapiens, UniProt P22309); enzyme activity; 30 µM).
`CC(C)CC(=O)OC[C@H]1O[C@@](C#N)(c2ccc3c(N)ncnn23)[C@H](O)[C@@H]1O` has a recovery of 87.3% (ATP-dependent translocase ABCB1 (ABCB1, Homo sapiens, UniProt P08183); basolateral to apical transport; Caco-2; 90 µM, 2 h).
The IC50 of `CCC(C)O` (stereo not drawn) is reported as 630 µM (CYP2E1; enzyme activity, inhibitor).
The maximum activity of `Clc1cccc(-c2cccc(Cl)c2)c1` is reported as 50% (AHR; reporter gene, antagonist; AZ-AHR cells; 40 µM, added: TCDD 4.5 nM; relative to: TCDD 4.5 nM).
With `CCC[C@@](N)(CO)CCc1ccc(OCCCCCC(C)C)cc1` the IC50 was 26.9 µM (CYP2B6; enzyme activity, inhibitor).
Under “enzyme contribution to CLint”, `CC1(C)C(C=C(Cl)Cl)C1C(=O)OC(C#N)c1ccc(F)c(Oc2ccccc2)c1` (stereo not drawn) is recorded as 0.31% (human cytosolic CES2; IVIVE from expressed enzymes; human, liver, in vivo scaled; 0.1 µM, age-specific).
Under “MIC after protease treatment”, `CC[C@H](C)[C@H](NC(=O)[C@H](CCCCN)NC(=O)[C@@H](NC(=O)[C@H](Cc1ccc(O)cc1)NC(=O)[C@H](CCCCN)NC(=O)[C@H](CCCCN)NC(=O)CNC(=O)[C@H](CCCCN)NC(=O)[C@@H](NC(=O)[C@H](C)NC(=O)[C@H](CC(C)C)NC(=O)[C@H](Cc1c[nH]c2ccccc12)NC(=O)CNC(=O)[C@@H](NC(=O)[C@H](Cc1ccccc1)NC(=O)[C@H](CCCCN)NC(=O)[C@H](CC(C)C)NC(=O)[C@H](Cc1ccccc1)NC(=O)[C@H](C)NC(=O)CNC(=O)[C@@H](N)CCSC)C(C)C)[C@@H](C)O)C(C)C)C(=O)N[C@@H](C)C(=O)N[C@@H](Cc1c[nH]c2ccccc12)C(=O)N[C@@H](CC(=O)O)C(=O)N[C@@H](Cc1c[nH]cn1)C(=O)N[C@@H](CCCCN)C(=O)NCC(=O)N[C@H](C(=O)N[C@H](C(=O)N[C@@H](CCSC)C(=O)N[C@@H](CCCCN)C(=O)N[C@@H](Cc1c[nH]c2ccccc12)C(=O)N[C@@H](CC(C)C)C(=O)N[C@@H](CC(N)=O)C(=O)N[C@@H](C)C(=O)NCC(=O)N[C@@H](CCC(N)=O)C(=O)N[C@H](C(=O)N[C@@H](Cc1ccccc1)C(=O)N[C@H](C(=O)N[C@@H](Cc1c[nH]c2ccccc12)C(=O)N[C@H](C(=O)N[C@@H](Cc1ccc(O)cc1)C(=O)N[C@@H](CCC(=O)O)C(=O)N[C@@H](CCC(N)=O)C(=O)N[C@H](C(=O)N[C@@H](CCCCN)C(=O)N[C@@H](CCCCN)C(=O)N[C@@H](CC(C)C)C(=O)N[C@@H](Cc1c[nH]c2ccccc12)C(=O)N[C@H](C(=O)O)[C@@H](C)O)[C@@H](C)CC)C(C)C)[C@@H](C)O)[C@@H](C)O)[C@@H](C)CC)[C@@H](C)O` is recorded as “no effect” (Papain (Carica papaya, UniProt P00784); Pediococcus damnosus, CECT 4797; 3 h, 37 °C, added: papain 1 mg/mL; relative to: untreated).
`COc1cc2nc(N3CCN(C(=O)c4ccco4)CC3)nc(N)c2cc1OC` has an inhibition of 89.5% (SLC22A1; transport, inhibitor; 100 µM).
For `CC(C)=CC1C(C(=O)OC(C#N)c2cccc(Oc3ccccc3)c2)C1(C)C` (stereo not drawn), “enzyme contribution to CLint” read 0.18% (human cytosolic CES2; IVIVE from expressed enzymes; human, liver, in vivo scaled; age-specific).
